Results of several laboratories.
Every numbered part comes from another study and shows a few of its results, in no order.

Series 1
Target: Prothrombin, mature alpha-thrombin (F2, Homo sapiens, UniProt P00734)
Technique: aptamer microarray, sandwich
Form: DNA with 2'F-ANA
Sample: in vitro
Concentration: 200 nM
Notes: whole 15-mer aptamer, many near background
Together with: Cy3 exosite-II aptamer, 400 nM
Direction: higher = stronger binding
Endpoint: mean fluorescence intensity
Sequence: GGTTGGTGTGGTTGG
2'F-ANA at 1 3 5 8 10 12 13 14 15: 49.2 a.u.
2'F-ANA at 1 2 4 5 6 10 14: 46 a.u.
2'F-ANA at 1 4 5 6 10 11 12 13 14: 46.8 a.u.
2'F-ANA at 1 4 5 6 8 11 12 14 15: 46.5 a.u.
2'F-ANA at 1 8 10 13 14: 45.5 a.u.

Series 2
Target: Sal-like protein 4, full length isoform A (SALL4, Homo sapiens, UniProt Q9UJQ4, residues 1-1053)
Sequence of UniProt Q9UJQ4 (whole entry, looked up): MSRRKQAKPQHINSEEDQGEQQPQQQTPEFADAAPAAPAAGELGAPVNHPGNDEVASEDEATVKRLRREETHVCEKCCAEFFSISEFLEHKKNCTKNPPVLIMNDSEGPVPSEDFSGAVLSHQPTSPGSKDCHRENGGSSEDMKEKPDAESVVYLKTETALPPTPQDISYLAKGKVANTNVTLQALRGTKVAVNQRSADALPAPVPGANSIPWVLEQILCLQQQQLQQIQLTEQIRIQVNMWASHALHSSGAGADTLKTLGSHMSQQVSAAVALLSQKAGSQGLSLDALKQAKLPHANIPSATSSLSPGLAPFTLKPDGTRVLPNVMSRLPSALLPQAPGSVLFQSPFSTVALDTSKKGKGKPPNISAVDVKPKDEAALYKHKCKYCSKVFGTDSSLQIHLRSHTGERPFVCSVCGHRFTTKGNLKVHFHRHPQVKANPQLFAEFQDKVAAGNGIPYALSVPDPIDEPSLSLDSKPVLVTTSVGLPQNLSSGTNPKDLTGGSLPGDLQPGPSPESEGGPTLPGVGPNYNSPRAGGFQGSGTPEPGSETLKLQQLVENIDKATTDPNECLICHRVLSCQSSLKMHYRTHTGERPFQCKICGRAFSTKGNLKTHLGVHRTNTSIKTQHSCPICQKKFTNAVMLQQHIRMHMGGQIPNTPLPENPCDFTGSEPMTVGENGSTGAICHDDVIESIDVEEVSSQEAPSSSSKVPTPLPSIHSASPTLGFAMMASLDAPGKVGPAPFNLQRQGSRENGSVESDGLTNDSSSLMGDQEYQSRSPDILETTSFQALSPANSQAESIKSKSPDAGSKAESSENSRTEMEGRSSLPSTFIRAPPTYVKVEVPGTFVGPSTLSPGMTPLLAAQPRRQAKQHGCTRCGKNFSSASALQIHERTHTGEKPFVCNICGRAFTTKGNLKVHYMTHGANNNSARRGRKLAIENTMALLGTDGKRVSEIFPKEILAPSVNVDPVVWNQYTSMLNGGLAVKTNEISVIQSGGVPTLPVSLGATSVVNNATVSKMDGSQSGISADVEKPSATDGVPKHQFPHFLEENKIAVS
Technique: universal PBM
Form: double-stranded DNA, one strand shown
Sample: in vitro
Concentration: 600 nM
Notes: 8-mer, flanks averaged, mean of replicates
Direction: higher = stronger binding
Endpoint: E-score
AGCGCCCT: -0.279
ATTCCTGA: 0.121
CCCATTCA: -0.019
CGTGGAAG: -0.113
AGAAAGAT: 0.168

Series 3
Target: Histone acetyltransferase KAT6A, winged helix 1, GST fusion (KAT6A, Homo sapiens, UniProt Q92794, residues 1-85)
Technique: protein binding microarray
Form: double-stranded DNA, one strand shown
Sample: in vitro
Concentration: not given
Notes: 8-mer, flanks averaged, mean of 2 arrays, mostly near background
Relative to: not given
Direction: higher = stronger binding
Endpoint: E-score
Residues (chain): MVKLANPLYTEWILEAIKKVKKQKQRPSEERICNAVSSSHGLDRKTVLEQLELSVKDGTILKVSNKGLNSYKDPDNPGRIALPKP
GATGCATC: -0.0539
CCGTGCGC: 0.414
TATGCTGA: -0.163
AGAGTCGG: 0.0438
AAATTGGT: -0.139

Single results of other studies
PhoQ, residues 284 288 289 292 302 303 AGHLVA — fold induction (PhoP, residues 12 14 15 18 19 LHTVM (Escherichia coli, UniProt P23836); Sort-seq, item: YFP reporter; E. coli; PhoQ-PhoP variant library, together with: 10 µM Mg2+; relative to: high Mg2+ state, higher = stronger signaling): 13.2

A few entries again (series 2):
CCCATTCA: -0.019
